Measurements collected from several papers.
Each line is one published result; not all experiments were run side by side.
B1: Stat3 127-722 (Mus musculus, UniProt P42227-2); pY705, Stattic adducts; sequence looked up; chain GQANHPTAAVVTEKQQMLEQHLQDVRKRVQDLEQKMKVVENLQDDFDFNYKTLKSQGDMQDLNGNNQSVTRQKMQQLEQMLTALDQMRRSIVSELAGLLSAMEYVQKTLTDEELADWKRRQQIACIGGPPNICLDRLENWITSLAESQLQTRQQIKKLEELQQKVSYKGDPIVQHRPMLEERIVELFRNLMKSAFVVERQPCMPMHPDRPLVIKTGVQFTTKVRLLVKFPELNYQLKIKVCIDKDSGDVAALRGSRKFNILGTNTKVMNMEESNNGSLSAEFKHLTLREQRCGNGGRANCDASLIVTEELHLITFETEVYHQGLKIDLETHSLPVVVISNICQMPNAWASILWYNMLTNNPKNVNFFTKPPIGTWDQVAEVLSWQFSSTTKRGLSIEQLTTLAEKLLGPGVNYSGCQITWAKFCKENMAGKGFSFWVWLDNIIDLVKKYILALWNEGYIMGFISKERERAILSTKPPGTFLLRFSESSKEGGVTFTWVEKDISGKTQIQSVEPYTKQQLNNMSFAEIIMGYKIMDATNILVSPLVYLYPDIPKEEAFGKYCRPESQEHPEADPGSAAPYLKTKFICVTPFIDAVWK
B2: UGT1A9 (Homo sapiens, UniProt O60656); chain GKLLVVPMDGSHWFTMRSVVEKLILRGHEVVVVMPEVSWQLGRSLNCTVKTYSTSYTLEDLDREFKAFAHAQWKAQVRSIYSLLMGSYNDIFDLFFSNCRSLFKDKKLVEYLKESSFDAVFLDPFDNCGLIVAKYFSLPSVVFARGILCHYLEEGAQCPAPLSYVPRILLGFSDAMTFKERVRNHIMHLEEHLLCHRFFKNALEIASEILQTPVTEYDLYSHTSIWLLRTDFVLDYPKPVMPNMIFIGGINCHQGKPLPMEFEAYINASGEHGIVVFSLGSMVSEIPEKKAMAIADALGKIPQTVLWRYTGTRPSNLANNTILVKWLPQNDLLGHPMTRAFITHAGSHGVYESICNGVPMVMMPLFGDQMDNAKRMETKGAGVTLNVLEMTSEDLENALKAVINDKSYKENIMRLSSLHKDRPVEPLDLAVFWVEFVMRHKGAPHLRPAAHDLTWYQYHSLDVIGFLLAVVLTVAFITFKCCAYGYRKCLGKKGRVKKAHKSKTH
B3: CLTC 1521-1654 C1528A/T1585L (Bos taurus, UniProt P49951); sequence looked up; chain WKQSVELAKKDSLYKDAMQYASESKDTELAEELLQWFLQEEKRECFGACLFTCYDLLRPDVVLELAWRHNIMDFAMPYFIQVMKEYLTKVDKLDASESLRKEEEQATETQPIVYGQPQLMLTAGPSVAVPPQAP
B4: LMNA dimer 31-311 (Homo sapiens, UniProt P02545); chain EKEDLQELNDRLAVYIDRVRSLETENAGLRLRITESEEVVSREVSGIKAAYEAELGDARKTLDSVAKERARLQLELSKVREEFKELKARNTKKEGDLIAAQARLKDLEALLNSKEAALSTALSEKRTLEGELHDLRGQVAKLEAALGEAKKQLQDEMLRRVDAENRLQTMKEELDFQKNIYSEELRETKRRHETRLVEIDNGKQREFESRLADALQELRAQHEDQVEQYKKELEKTYSAKLDNARQSAERNSNLVGAAHEELQQSRIRIDSLSAQLSQLQK
B5: hhoB PDZ deleted 51-305 (Synechocystis sp. PCC 6803, UniProt P73940); sequence looked up; chain SLTPAPVESNYRSALPLTLPRSAQDDQELNFIARAVQKIGPAVVRIDSERTAVSQGGPMGDQPFFRRFFGEEMPPNPDPREQGTGSGFILSSDGEVLTNAHVVEGASTVKVTLKDGSVLEGKVMGIDTMTDVAVVKVEAENLPVVEIGQSDRLQPGEWAIAIGNPLGLDNTVTVGIISALGRSSSEVGVPDKRVRFIQTDAAINPGNSGGPLLNAKGEVIGVNTAIRADAQGLGFAIPIQTAQNVAENLFTKGKM
B6: PRDX3 62-end 62-256 (Homo sapiens, UniProt P30048); Cys-Sp/Cys-Sr intersubunit disulfides; sequence looked up; chain APAVTQHAPYFKGTAVVNGEFKDLSLDDFKGKYLVLFFYPLDFTFVCPTEIVAFSDKANEFHDVNCEVVAVSVDSHFSHLAWINTPRKNGGLGHMNIALLSDLTKQISRDYGVLLEGSGLALRGLFIIDPNGVIKHLSVNDLPVGRSVEETLRLVKAFQYVETHGEVCPANWTPDSPTIKPSPAASKEYFQKVNQ
B7: BMP4 mature growth factor (Homo sapiens, UniProt P12644); two N-linked glycans; sequence looked up; chain SPKHHSQRARKKNKNCRRHSLYVDFSDVGWNDWIVAPPGYQAFYCHGDCPFPLADHLNSTNHAIVQTLVNSVNSSIPKACCVPTELSAISMLYLDEYDKVVLKNYQEMVVEGCGCR
B8: NR3C1/ESR1 and 1-527 (Homo sapiens); sequence looked up; chain MDSKESLTPGREENPSSVLAQERGDVMDFYKTLRGGATVKVSASSPSLAVASQSDSKQRRLLVDFPKGSVSNAQQPDLSKAVSLSMGLYMGETETKVMGNDLGFPQQGQISLSSGETDLKLLEESIANLNRSTSVPENPKSSASTAVSAAPTEKEFPKTHSDVSSEQQHLKGQTGTNGGNVKLYTTDQSTFDILQDLEFSSGSPGKETNESPWRSDLLIDENCLLSPLAGEDDSFLLEGNSNEDCKPLILPDTKPKIKDNGDLVLSSPSNVTLPQVKTEKEDFIELCTPGVIKQEKLGTVYCQASFPGANIIGNKMSAISVHGVSTSGGQMYHYDMNTASLSQQQDQKPIFNVIPPIPVGSENWNRCQGSGDDNLTSLGTLNFPGRTVFSNGYSSPSMRPDVSSPPSSSSTATTGPPPKLCLVCSDEASGCHYGVLTCGSCKVFFKRAVEGQHNYLCAGRNDCIIDKIRRKNCPACRYRKCLQAGMNLEARKTKKKIKGIQQATTGVSQETSENPGNKTIVPATLPQTADQMVSALLDAEPPILYSEYDPTRPFSEASMMGLLTNLADRELVHMINWAKRVPGFVDLTLHDQVHLLECAWLEILMIGLVWRSMEHPGKLLFAPNLLLDRNQGKCVEGMVEIFDMLLATSSRFRMMNLQGEEFVCLKSIILLNSGVYTFLSSTLKSLEEKDHIHRVLDKITDTLIHLMAKAGLTLQQQHQRLAQLLLILSHIRHMSNKGMEHLYSMKCKNVVPLYDLLLEMLDAHRLHAPTSRGGASVEETDQSHLATAGSTSSHSLQKYYITGEAEGFPATV

`B1 (Stat3 127-722)`: “subunits per oligomer” 2 (itself; SEC; Stattic treated, phosphorylated).
`B2 (UGT1A9)` gave a Km of 1.93 µM (O=c1cc(-c2ccc(O)cc2)oc2cc(O)cc(O)c12; steady-state kinetics; pH 7.4, 37 °C).
Under “subunits per oligomer”, `SKA1/SKA2/SKA3 S34D (sequence not shown)` is recorded as 2 (itself; SEC, velocity sedimentation).
Under “subunits per oligomer”, `B3 (CLTC 1521-1654 C1528A/T1585L)` is recorded as 3 (itself; crystal structure).
Under “subunits per oligomer”, `B4 (LMNA dimer 31-311)` is recorded as 2 (itself; SEC).
Under “subunits per oligomer”, `CRYAA R49C (Homo sapiens) (sequence not shown)` is recorded as 2 (itself; non-reducing SDS-PAGE).
For `B5 (hhoB PDZ deleted 51-305)`, “subunits per oligomer” read 3 (itself; SEC; not very stable trimers).
Under “subunits per oligomer”, `gsnl-1 fragment (Caenorhabditis elegans) (sequence not shown)` is recorded as 2 (itself; SEC).
`B6 (PRDX3 62-end 62-256)`: “subunits per oligomer” 2 (itself; SEC; oligomer to dimers, with: H2O2).
`CRYAA R54C (Homo sapiens) (sequence not shown)`: “subunits per oligomer” 2 (itself; non-reducing SDS-PAGE).
`HIR2 fragment (Saccharomyces cerevisiae) (sequence not shown)` — result for “subunits per oligomer”: 2 (itself; sedimentation equilibrium; pH 8.0, 4 °C, NaCl 300 mM).
For `B7 (BMP4 mature growth factor)`, “subunits per oligomer” read 2 (itself; SDS-PAGE).
`B8 (NR3C1/ESR1 and 1-527)` — result for “subunits per oligomer”: 2 (itself; sedimentation velocity AUC; pH 8.0, 4 °C, NaCl 100 mM, with: E2).
